Measurements pooled from the literature.
A part holds a random share of what one study measured. Positions count from the first letter of the parent shown.

Sample 1 — technique: DHFR PCA, deep sequencing; medium: yeast; added: (+)-ABA 2500 µM; baseline: wild-type fitted maximum; direction: higher = stronger binding
Target: ABI1, truncated, D143A, DHFR fusion (Arabidopsis thaliana)
Notes: methotrexate growth selection, single substitutions
Starting sequence: PYL1, truncated, DHFR fusion (Arabidopsis thaliana); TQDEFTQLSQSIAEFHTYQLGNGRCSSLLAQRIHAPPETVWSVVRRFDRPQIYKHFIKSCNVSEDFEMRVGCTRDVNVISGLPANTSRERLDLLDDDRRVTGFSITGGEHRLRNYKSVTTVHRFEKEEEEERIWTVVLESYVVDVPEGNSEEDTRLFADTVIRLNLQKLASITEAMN
Substitution | relative binding score
N177E | 96.9%
S9V | 94.4%
E128G | 107%
D144H | 79.7%
S9E | 101%
H34D | 94.6%
S104Q | 82.8%

Sample 2 — target: CCNF, cyclin fold, Cln2 fusion (human); technique: yeast growth competition, sequencing; medium: yeast; notes: strong parent motif; baseline: not given; direction: higher = stronger binding
Starting sequence: RBL1 docking peptide (human); GSAKRRLFGEDPP
Substitution | normalised enrichment score
A3F | 5.62
A3G | 2.86
F8G | 0.659
G9K | 6.69

Sample 3 — technique: universal PBM; form: double-stranded DNA, one strand shown; medium: in vitro; tested at: not given; direction: higher = stronger binding
Target: Sal-like protein 4, full length isoform B (SALL4, Homo sapiens, UniProt Q9UJQ4-2, residues 1-616)
Notes: 8-mer, flanks averaged, mean of replicates
Target sequence (chain): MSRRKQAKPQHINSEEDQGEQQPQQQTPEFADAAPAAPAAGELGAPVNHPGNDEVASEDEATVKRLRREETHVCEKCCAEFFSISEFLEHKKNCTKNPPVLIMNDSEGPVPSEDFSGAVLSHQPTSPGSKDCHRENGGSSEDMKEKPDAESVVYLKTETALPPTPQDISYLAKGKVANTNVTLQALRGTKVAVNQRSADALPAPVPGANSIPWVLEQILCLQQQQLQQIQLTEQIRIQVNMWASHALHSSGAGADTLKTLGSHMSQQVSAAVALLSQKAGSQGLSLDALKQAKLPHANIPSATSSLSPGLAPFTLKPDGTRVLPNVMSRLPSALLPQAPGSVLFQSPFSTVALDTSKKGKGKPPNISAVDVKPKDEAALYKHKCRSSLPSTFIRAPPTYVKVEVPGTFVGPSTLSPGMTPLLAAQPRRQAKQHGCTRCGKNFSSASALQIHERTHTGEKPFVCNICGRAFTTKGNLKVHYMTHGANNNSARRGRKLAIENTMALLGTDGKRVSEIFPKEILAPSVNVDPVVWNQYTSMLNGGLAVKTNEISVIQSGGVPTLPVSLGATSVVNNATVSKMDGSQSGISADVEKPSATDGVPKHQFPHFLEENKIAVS
Strand | E-score
CCGGGTCA | -0.344
CAACGTTC | 0.00982
CAAAACCG | -0.0904
AGGGTAAA | 0.117
CAGACTCA | -0.113

Further values, each from its own experiment
Molecule | target | test | system | setting | scale | measurement | value
PhoQ, residues 284 288 289 292 302 303 SCCLKL | PhoP, residues 12 14 15 18 19 NNFVT (Escherichia coli, UniProt P23836) | Sort-seq, refers to: YFP reporter | E. coli | PhoQ-PhoP variant library, added: 10 µM Mg2+ | baseline: high Mg2+ state, higher = stronger signaling | fold induction | 8.26

For quick reference, copied from above (further values, each from its own experiment):
Molecule | target | test | system | setting | scale | measurement | value
PhoQ, residues 284 288 289 292 302 303 SCCLKL | PhoP, residues 12 14 15 18 19 NNFVT (Escherichia coli, UniProt P23836) | Sort-seq, refers to: YFP reporter | E. coli | PhoQ-PhoP variant library, added: 10 µM Mg2+ | baseline: high Mg2+ state, higher = stronger signaling | fold induction | 8.26
